Assay results pooled from the literature.
A part holds a random share of what one study measured.

Study 1
Target: Sal-like protein 4, full length isoform A (SALL4, Homo sapiens, UniProt Q9UJQ4, residues 1-1053)
Chain of UniProt Q9UJQ4 (whole entry, looked up): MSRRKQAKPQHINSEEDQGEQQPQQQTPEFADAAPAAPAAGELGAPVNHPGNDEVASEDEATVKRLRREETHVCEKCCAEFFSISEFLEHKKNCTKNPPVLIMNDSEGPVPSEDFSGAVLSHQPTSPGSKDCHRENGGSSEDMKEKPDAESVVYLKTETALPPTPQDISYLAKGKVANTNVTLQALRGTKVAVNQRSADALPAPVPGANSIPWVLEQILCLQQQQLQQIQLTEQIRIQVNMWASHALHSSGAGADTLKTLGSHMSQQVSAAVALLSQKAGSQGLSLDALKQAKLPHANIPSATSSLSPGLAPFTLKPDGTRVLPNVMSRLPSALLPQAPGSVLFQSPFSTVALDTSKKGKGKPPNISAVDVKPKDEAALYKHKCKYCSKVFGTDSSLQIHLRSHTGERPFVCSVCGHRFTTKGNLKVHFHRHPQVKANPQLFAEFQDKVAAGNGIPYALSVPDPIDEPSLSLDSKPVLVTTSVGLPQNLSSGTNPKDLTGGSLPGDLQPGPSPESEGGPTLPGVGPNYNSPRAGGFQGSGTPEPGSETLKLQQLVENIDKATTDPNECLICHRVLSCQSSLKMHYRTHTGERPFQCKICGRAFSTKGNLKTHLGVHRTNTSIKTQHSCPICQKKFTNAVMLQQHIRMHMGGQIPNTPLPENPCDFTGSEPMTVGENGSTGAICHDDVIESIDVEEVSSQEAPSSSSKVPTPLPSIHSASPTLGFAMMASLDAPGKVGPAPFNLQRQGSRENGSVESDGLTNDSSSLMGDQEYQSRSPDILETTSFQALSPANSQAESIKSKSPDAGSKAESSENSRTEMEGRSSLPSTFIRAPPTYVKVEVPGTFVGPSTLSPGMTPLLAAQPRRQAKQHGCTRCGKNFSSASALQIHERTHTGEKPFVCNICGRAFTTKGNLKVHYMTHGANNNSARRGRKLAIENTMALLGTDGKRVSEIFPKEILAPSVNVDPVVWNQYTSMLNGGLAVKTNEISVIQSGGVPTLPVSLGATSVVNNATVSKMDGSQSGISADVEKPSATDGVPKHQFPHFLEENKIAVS
Technique: universal PBM
Form: double-stranded DNA, one strand shown
Matrix: in vitro
Concentration: 600 nM
Notes: 8-mer, flanks averaged, mean of replicates
Direction: higher = stronger binding
For `CTCCCACA`, the E-score was -0.122.
With `GTGCGTGA` the E-score was -0.119.
The E-score of `ACAGTAAA` is reported as 0.289.
For `GGATGGCC`, the E-score was -0.365.
The E-score of `AGTCCTAT` is reported as 0.134.
For `ACTCCAAT`, the E-score was -0.0298.
The E-score of `CAATTTAG` is reported as 0.132.
`AAGATCTG` gave an E-score of -0.0948.
`ACTGAAGC` gave an E-score of 0.0294.
For `CACTGAGG`, the E-score was -0.152.
`CTTGGTAA` has an E-score of 0.12.
The E-score of `AAGGTGAT` is reported as 0.0446.

Study 2
Target: Transcriptional repressor CTCF (CTCF, Homo sapiens, UniProt P49711, residues 1-727, full length assumed)
Technique: protein-binding microarray
Form: double-stranded DNA, one strand shown
Matrix: in vitro
Concentration: not given
Notes: k-mer, scored over probes, only values ≥0.25
Direction: higher = stronger binding
Target sequence (chain): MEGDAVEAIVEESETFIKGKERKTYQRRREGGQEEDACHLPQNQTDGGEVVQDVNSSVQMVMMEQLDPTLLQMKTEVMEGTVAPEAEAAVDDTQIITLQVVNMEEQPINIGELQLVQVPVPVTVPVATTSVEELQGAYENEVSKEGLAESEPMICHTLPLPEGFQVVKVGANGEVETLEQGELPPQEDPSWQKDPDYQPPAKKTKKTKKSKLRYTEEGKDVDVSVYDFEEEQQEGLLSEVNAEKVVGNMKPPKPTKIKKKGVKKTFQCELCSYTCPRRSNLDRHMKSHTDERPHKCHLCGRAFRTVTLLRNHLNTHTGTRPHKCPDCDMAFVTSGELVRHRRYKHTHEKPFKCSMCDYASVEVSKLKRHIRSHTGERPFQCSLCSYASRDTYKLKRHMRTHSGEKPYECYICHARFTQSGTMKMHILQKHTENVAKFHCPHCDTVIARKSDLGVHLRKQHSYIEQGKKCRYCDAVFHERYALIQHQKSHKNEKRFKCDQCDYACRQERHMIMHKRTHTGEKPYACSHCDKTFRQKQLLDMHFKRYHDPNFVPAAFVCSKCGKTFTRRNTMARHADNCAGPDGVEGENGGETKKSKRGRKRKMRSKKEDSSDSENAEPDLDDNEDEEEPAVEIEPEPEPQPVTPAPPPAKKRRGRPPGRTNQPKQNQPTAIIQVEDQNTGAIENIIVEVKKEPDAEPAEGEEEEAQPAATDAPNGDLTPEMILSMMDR
`CCTAGCGC` has an E-score of 0.252.
`GATAGCGC` has an E-score of 0.29.
The E-score of `TACGTATA` is reported as 0.347.
`AGTATACA` has an E-score of 0.264.
The E-score of `ACCATATA` is reported as 0.321.
For `CGCGAAAA`, the E-score was 0.281.
With `CGCGCAGA` the E-score was 0.267.
`CAAATACA` has an E-score of 0.321.
`ACTATATG` has an E-score of 0.259.
With `GAGGGCGC` the E-score was 0.338.

Study 3
Target: Interferon regulatory factor 5, full length, phosphomimetic (IRF5, Homo sapiens, UniProt Q13568-2, residues 1-514, S451D/S453D/S456D/S462D)
Technique: protein-binding microarray
Form: double-stranded DNA, one strand shown
Matrix: in vitro
Concentration: 940 nM top
Notes: 60-bp whole probe
Added: salmon DNA 0.4 mg/ml
Relative to: random background probes
Direction: higher = stronger binding
Constant ends, left off below: GCCTAGCAC … GTCTTGATTCGCTTGACGCTGCTG
`GACGGTACCGACACTGGGGACGTGCTA` — result for “fitted relative affinity”: -0.205 z-score.
`GATTTCTTCCCTGTGAAAACGTGCTAG`: “fitted relative affinity” 0.741 z-score.
Under “fitted relative affinity”, `TTAGGTTTCGGTTTCGGTTCGTGCTAG` is recorded as 17.2 z-score.
`GACGGACTGGGGGCTGGGGACGTGCTA`: “fitted relative affinity” 0.639 z-score.
`GTCGGTTTCCTTATCCTGACGTGCTAG`: “fitted relative affinity” 3.3 z-score.
For `GACGGACTGGGGTTTCGGGCCGTGCTA`, “fitted relative affinity” read 1.35 z-score.
Under “fitted relative affinity”, `AGTATTACCTCATCTTTCCCTGTGCTA` is recorded as 1.85 z-score.
`ATTGCTTTCTCTTTCACTGCGTGCTAG` — result for “fitted relative affinity”: 2.66 z-score.

Mixed results
With `PhoQ, residues 284 288 289 292 302 303 AGHLVA` the fold induction was 15.6 (PhoP, residues 12 14 15 18 19 NMSSL (Escherichia coli, UniProt P23836); Sort-seq, measured: YFP reporter; E. coli; PhoQ-PhoP variant library, added: 10 µM Mg2+; relative to: high Mg2+ state, higher = stronger signaling).

For quick reference, copied from above (study 1):
The E-score of `ACAGTAAA` is reported as 0.289.
For `GGATGGCC`, the E-score was -0.365.
The E-score of `AGTCCTAT` is reported as 0.134.
For `ACTCCAAT`, the E-score was -0.0298.
The E-score of `CAATTTAG` is reported as 0.132.
